Measured values from different studies.
Every numbered part comes from another study and shows a few of its results, in no order. Several values in a cell are separate wells, animals, samples, runs or records.
UniProt P52333, sequence (whole entry, looked up): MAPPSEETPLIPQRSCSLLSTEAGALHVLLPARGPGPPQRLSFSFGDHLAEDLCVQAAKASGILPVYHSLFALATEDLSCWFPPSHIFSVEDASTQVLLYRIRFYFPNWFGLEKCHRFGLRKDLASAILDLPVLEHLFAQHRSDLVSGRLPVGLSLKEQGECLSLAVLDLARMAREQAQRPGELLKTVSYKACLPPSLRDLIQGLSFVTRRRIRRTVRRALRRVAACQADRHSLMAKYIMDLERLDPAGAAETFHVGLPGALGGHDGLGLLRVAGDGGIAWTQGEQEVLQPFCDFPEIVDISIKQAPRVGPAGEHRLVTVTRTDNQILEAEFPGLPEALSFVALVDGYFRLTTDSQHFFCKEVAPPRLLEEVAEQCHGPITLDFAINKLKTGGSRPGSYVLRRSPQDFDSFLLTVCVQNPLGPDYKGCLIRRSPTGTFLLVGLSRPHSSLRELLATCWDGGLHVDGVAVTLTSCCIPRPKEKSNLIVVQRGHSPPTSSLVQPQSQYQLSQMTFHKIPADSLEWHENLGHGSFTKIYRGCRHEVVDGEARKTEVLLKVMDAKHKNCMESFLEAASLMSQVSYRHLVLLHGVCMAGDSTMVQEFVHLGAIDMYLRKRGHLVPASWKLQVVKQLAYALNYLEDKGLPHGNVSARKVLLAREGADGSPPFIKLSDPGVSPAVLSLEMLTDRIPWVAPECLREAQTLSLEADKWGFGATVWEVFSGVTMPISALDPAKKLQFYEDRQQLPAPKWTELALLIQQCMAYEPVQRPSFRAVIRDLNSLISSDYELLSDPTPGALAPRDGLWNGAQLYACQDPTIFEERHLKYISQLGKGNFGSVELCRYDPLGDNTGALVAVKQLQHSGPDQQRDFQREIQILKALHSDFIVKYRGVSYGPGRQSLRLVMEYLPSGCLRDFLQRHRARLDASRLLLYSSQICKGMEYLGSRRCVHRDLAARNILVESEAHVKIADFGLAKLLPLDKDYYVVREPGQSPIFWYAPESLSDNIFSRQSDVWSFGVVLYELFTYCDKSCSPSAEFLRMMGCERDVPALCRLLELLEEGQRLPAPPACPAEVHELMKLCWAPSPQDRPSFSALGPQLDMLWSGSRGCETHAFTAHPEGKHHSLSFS

Sample 1
Target: Calcium/calmodulin-dependent protein kinase type 1D (CAMK1D, Homo sapiens, UniProt Q8IU85)
UniProt Q8IU85, sequence (whole entry, looked up): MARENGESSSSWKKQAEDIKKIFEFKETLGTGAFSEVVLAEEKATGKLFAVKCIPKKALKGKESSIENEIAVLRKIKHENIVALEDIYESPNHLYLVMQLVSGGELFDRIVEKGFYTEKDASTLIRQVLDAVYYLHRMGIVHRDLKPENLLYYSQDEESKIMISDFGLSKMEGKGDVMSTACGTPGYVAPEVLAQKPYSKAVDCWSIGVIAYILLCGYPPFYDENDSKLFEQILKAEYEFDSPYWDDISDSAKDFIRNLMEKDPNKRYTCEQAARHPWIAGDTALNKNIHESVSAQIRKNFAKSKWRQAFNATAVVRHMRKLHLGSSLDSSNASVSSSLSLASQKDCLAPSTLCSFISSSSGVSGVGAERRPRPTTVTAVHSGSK
Read-out: enzyme activity
Action: inhibitor
Tested at: 0.5 µM
Baseline: control
For CCN1/C(=C/C(C)=O)Sc2ccc(OC)cc21, the remaining activity was 105%.
CC(C)c1nn(-c2c(Cl)cccc2Cl)c2nc(Cc3ccc(OCCO)cc3)[nH]c(=O)c12 gave a remaining activity of 102%.
COc1ccc(Cl)cc1NC(=O)Nc1cc(C)nc2ccccc12 has a remaining activity of 99.9%.
With CS(=O)(=O)CCNCc1ccc(-c2ccc3ncnc(Nc4ccc(OCc5cccc(F)c5)c(Cl)c4)c3c2)o1 the remaining activity was 104%.
The remaining activity of Cn1cnc2cc3c(Nc4cccc(Br)c4)ncnc3cc21 is reported as 104%.
COc1cc2ncnc(Nc3ccc(OCc4ccccc4)cc3)c2cc1OC gave a remaining activity of 104%.
For CC(C)[C@H](CO)Nc1nc(Nc2cccc(Cl)c2)c2ncn(C(C)C)c2n1, the remaining activity was 103%.
With Cc1nc(Nc2ncc(C(=O)Nc3c(C)cccc3Cl)s2)cc(N2CCN(CCO)CC2)n1 the remaining activity was 105%.
CN(C)CCCn1cc(C2=C(c3c[nH]c4ccccc34)C(=O)NC2=O)c2ccccc21 gave a remaining activity of 68%.
COc1cc2ncc(-c3ccccc3)nc2cc1OC gave a remaining activity of 96.6%.
The remaining activity of CCOc1cc2ncnc(Nc3cccc(Br)c3)c2cc1OCC is reported as 102%.
The remaining activity of CCC(=O)Nc1ccc2ncnc(Nc3cccc(Br)c3)c2c1 is reported as 104%.
Nc1[nH]nc2nnc(-c3c(-c4ccccc4)nn4ccccc34)cc12 gave a remaining activity of 95.9%.
Cc1ccc(NC(=O)c2ccc(CN3CCN(C)CC3)cc2)cc1Nc1nccc(-c2cccnc2)n1 has a remaining activity of 95%.
O=C(Nc1ccc(Cl)cc1)c1ccccc1NCc1ccncc1 gave a remaining activity of 95.3%.
The remaining activity of O=c1cc(N2CCOCC2)oc2c1ccc1ccccc12 is reported as 91.1%.

Sample 2
SMILES: COc1cc(C(=O)OCCCN2CCCN(CCCOC(=O)c3cc(OC)c(OC)c(OC)c3)CC2)cc(OC)c1OC
The “paw withdrawal frequency” was 0% and 10% and 20% (von Frey, 0.4 g filament; mouse, CFA inflammatory pain; intraplantar, baseline before CFA).
For von Frey, 0.4 g filament; mouse, CFA inflammatory pain; intravenous, dose not given, 1 h post-dose, third injection, day 5: “paw withdrawal frequency” read 80% and 90% and 70%.
The “paw withdrawal frequency” was 90% and 100% (von Frey, 0.4 g filament; mouse, CFA inflammatory pain; intraplantar, after CFA, before dosing).
For von Frey test; mouse, STZ diabetic neuropathy; subcutaneous, 30 mg/kg, second of three doses, 24 h: “paw withdrawal frequency” read 0.13 fraction of stimuli and 0.29 fraction of stimuli and 0.08 fraction of stimuli.
It gave 0.29 fraction of stimuli and 0.11 fraction of stimuli and 0.1 fraction of stimuli for “paw withdrawal frequency” (von Frey test; mouse, STZ diabetic neuropathy; subcutaneous, 30 mg/kg, second of three doses, 3 h).

Sample 3
Target: DNA polymerase theta, helicase domain (POLQ, Homo sapiens, UniProt O75417)
UniProt O75417, sequence (whole entry, looked up): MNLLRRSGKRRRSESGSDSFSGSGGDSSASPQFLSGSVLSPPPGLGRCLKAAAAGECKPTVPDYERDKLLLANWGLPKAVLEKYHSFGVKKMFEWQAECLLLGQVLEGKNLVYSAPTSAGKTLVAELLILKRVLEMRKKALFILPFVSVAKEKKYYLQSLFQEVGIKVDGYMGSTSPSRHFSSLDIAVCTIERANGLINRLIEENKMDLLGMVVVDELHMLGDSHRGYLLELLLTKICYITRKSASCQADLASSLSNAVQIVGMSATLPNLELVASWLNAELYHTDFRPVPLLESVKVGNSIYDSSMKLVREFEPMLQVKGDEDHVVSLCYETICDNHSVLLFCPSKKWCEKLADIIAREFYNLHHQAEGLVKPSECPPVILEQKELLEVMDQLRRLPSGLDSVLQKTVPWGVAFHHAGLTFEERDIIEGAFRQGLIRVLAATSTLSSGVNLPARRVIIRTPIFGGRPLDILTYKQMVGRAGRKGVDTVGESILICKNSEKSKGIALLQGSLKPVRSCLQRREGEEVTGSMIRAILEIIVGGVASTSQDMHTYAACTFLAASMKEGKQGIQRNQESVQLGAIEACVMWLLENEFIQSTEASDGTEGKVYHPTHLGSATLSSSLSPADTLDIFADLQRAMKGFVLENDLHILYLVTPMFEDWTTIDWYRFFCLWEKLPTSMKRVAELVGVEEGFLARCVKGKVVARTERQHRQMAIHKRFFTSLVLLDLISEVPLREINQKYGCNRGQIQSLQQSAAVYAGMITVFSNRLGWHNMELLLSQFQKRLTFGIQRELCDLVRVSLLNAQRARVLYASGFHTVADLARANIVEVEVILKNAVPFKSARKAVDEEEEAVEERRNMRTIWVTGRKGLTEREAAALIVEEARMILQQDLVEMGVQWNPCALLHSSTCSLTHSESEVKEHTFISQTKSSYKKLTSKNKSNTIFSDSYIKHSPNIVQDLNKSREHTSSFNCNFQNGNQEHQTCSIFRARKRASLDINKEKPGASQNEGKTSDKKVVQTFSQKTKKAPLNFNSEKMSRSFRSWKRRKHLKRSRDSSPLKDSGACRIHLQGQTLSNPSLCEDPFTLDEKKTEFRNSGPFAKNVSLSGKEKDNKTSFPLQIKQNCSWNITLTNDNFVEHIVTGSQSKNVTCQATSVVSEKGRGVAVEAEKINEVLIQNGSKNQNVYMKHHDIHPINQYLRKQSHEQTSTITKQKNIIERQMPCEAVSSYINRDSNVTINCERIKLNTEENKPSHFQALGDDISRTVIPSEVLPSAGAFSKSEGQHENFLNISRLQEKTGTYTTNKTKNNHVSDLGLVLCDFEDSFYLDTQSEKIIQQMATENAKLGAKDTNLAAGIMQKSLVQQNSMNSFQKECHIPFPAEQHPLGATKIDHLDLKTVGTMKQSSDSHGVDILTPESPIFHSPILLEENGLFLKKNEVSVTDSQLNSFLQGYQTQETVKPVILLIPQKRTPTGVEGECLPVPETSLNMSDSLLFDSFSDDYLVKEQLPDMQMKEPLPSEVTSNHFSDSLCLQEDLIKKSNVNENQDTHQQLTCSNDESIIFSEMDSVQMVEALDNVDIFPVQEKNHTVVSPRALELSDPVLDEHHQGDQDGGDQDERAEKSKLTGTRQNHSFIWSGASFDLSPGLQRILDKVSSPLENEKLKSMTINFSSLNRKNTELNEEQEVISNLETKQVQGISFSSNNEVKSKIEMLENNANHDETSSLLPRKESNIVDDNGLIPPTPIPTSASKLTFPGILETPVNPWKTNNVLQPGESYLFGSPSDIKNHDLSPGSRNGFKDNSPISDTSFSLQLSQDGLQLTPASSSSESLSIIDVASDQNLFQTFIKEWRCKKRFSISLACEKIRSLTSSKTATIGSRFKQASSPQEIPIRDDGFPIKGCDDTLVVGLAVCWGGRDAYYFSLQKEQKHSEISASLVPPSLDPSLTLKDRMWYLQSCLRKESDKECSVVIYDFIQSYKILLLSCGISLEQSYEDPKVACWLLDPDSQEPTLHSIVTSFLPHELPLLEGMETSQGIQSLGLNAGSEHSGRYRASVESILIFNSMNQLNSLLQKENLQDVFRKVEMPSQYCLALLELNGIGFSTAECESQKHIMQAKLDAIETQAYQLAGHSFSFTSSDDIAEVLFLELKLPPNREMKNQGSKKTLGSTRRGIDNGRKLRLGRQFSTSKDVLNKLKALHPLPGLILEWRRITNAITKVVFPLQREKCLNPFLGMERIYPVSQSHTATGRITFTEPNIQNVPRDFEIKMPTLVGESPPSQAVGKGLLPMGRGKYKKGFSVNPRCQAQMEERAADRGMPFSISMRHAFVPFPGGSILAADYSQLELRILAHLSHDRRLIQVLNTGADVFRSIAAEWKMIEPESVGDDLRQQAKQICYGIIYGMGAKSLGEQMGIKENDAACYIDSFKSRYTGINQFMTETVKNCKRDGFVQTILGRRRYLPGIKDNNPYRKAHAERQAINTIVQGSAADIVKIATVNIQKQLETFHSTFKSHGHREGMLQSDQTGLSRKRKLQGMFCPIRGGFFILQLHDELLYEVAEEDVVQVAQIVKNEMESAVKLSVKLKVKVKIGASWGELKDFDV
Read-out: ATPase activity
Tested at: concentration not given
Notes: average
With: with ssDNA
CC1(C)Cc2c(-c3ccccc3)c(-c3ccc(Cl)cc3)c(CC(=O)O)n2C1 gave a remaining activity of 68.3%.
For O=C(O)/C(=C/c1c(C(=O)O)[nH]c2cc(Cl)cc(Cl)c12)c1ccccc1, the remaining activity was 107%.
Cc1ccc(C2C=C(c3ccccc3)N=C3N=C(NS(C)(=O)=O)NN32)cc1 (stereo not drawn) has a remaining activity of 90.2%.
O=C(CSc1ncc(S(=O)(=O)c2ccc(Br)cc2)c(=O)[nH]1)NCc1ccc(Cl)cc1 has a remaining activity of 56.3%.
For CC(C)(C)c1ccc(S(=O)(=O)c2cnc(SCC(=O)Nc3ccc4c(c3)OCCO4)[nH]c2=O)cc1, the remaining activity was 66.7%.
The remaining activity of CSc1ccc(/C=C/c2nc3ccccc3n2S(=O)(=O)c2ccc(Br)cc2)cc1 is reported as 53.4%.
With O=C(O)C1=CC(=C(c2ccc(O)c(C(=O)O)c2)c2ccc(O)c(C(=O)O)c2)C=CC1=O the remaining activity was 3.72%.
The remaining activity of COc1ccc(S(=O)(=O)c2cnc(SCC(=O)Nc3cc(F)ccc3C)[nH]c2=O)cc1Cl is reported as 57.9%.
With O=C1c2c(O)ccc(O)c2C(=O)c2c(NCCNCCO)ccc(NCCNCCO)c21 the remaining activity was 22.5%.
For CC(=O)Oc1ccccc1C(=O)Nc1ncc([N+](=O)[O-])s1, the remaining activity was 46.8%.
O=C(O)[C@]1(Cc2cccc(Nc3nccs3)n2)CC[C@@H](Oc2cccc(Cl)c2F)CC1 has a remaining activity of 55.6%.

Mixed results
With C[C@@H]1CN(c2cc(-c3nn(C)c4ccc(OC5(C)CC5)cc34)ncn2)C[C@H](C)O1 the remaining activity was 12% (Tyrosine-protein kinase JAK3 (JAK3, Homo sapiens, UniProt P52333); enzyme activity, inhibitor; 1 µM).

Some of these lines once more (sample 2):
It gave 0.29 fraction of stimuli and 0.11 fraction of stimuli and 0.1 fraction of stimuli for “paw withdrawal frequency” (von Frey test; mouse, STZ diabetic neuropathy; subcutaneous, 30 mg/kg, second of three doses, 3 h).
For von Frey, 0.4 g filament; mouse, CFA inflammatory pain; intravenous, dose not given, 1 h post-dose, third injection, day 5: “paw withdrawal frequency” read 80% and 90% and 70%.
The “paw withdrawal frequency” was 90% and 100% (von Frey, 0.4 g filament; mouse, CFA inflammatory pain; intraplantar, after CFA, before dosing).
The “paw withdrawal frequency” was 0% and 10% and 20% (von Frey, 0.4 g filament; mouse, CFA inflammatory pain; intraplantar, baseline before CFA).
For von Frey test; mouse, STZ diabetic neuropathy; subcutaneous, 30 mg/kg, second of three doses, 24 h: “paw withdrawal frequency” read 0.13 fraction of stimuli and 0.29 fraction of stimuli and 0.08 fraction of stimuli.
